Experimental data pooled from the literature.
Every numbered part comes from another study and shows a few of its results, in no order. Substitutions count along the parent as printed.

Block 1
Target: CCNB1, cyclin fold, Cln2 fusion (human)
Technique: yeast growth competition, sequencing
Sample: yeast
Notes: strong parent motif
Relative to: not given
Direction: higher = stronger binding
Quantity: normalised enrichment score
Starting sequence: E2F1 docking peptide (human); PPVKRRLDFETDH
R5Y: 1.01
K4I: 5.4
D12H: 5.06
P2F: 3.6
V3I: 4.08
D8K: 3.75
T11F: 5.29
T11P: 5.03
V3C: 3.56
E10K: 3.68
R6K: 5.07
D8E: 5.17
P2L: 4.38
R5E: 0.237
K4Q: 5.33
F9P: 0.118
K4H: 4.6

Block 2
Target: Prothrombin, mature alpha-thrombin (F2, Homo sapiens, UniProt P00734)
Technique: aptamer microarray, sandwich
Molecule type: DNA with 2'F-ANA
Sample: in vitro
Concentration: 200 nM
Notes: whole 15-mer aptamer, many near background
With: Cy3 exosite-II aptamer, 400 nM
Direction: higher = stronger binding
Quantity: mean fluorescence intensity
Sequence: GGTTGGTGTGGTTGG
2'F-ANA at 1 3 4 7 8 10 11 13 14: 65.8 a.u.
2'F-ANA at 1 2 4 5 7 9 10 14 15: 43.4 a.u.
2'F-ANA at 1 3 5 6 11 12 15: 90.8 a.u.
2'F-ANA at 3 4 6 7 8 9 12 13: 706 a.u.
2'F-ANA at 1 2 3 4 6 7 8 9 10 14 15: 61.7 a.u.
2'F-ANA at 1 2 7 8 9 11: 151 a.u.
2'F-ANA at 2 3 6 7 9 12: 1010 a.u.
2'F-ANA at 2 3 4 8 10: 255 a.u.
2'F-ANA at 3 6 9 11 13 15: 647 a.u.
2'F-ANA at 1 3 4 6 9 15: 163 a.u.
2'F-ANA at 4 13 14: 87.7 a.u.
2'F-ANA at 1 2 5 7 9 10 14 15: 48.6 a.u.
2'F-ANA at 2 3 4 5 6 8 9 12 13 14: 51.6 a.u.
2'F-ANA at 1 2 3 5 8 12 15: 134 a.u.
2'F-ANA at 4 5 9 10 14 15: 47 a.u.
2'F-ANA at 1 2 4 5 8 9 10 12 14: 48.4 a.u.
2'F-ANA at 4 5 8 9 10 15: 55.5 a.u.
2'F-ANA at 1 2 4 5 6 10 12 13 15: 50.4 a.u.
2'F-ANA at 1 5 6 7 8 9 10 11 13 14: 81.8 a.u.
2'F-ANA at 1 2 3 7 8 11 13 14: 111 a.u.
2'F-ANA at 2 3 4 5 6 8 9 11 14: 53.9 a.u.
2'F-ANA at 1 6 7 9 13 15: 105 a.u.
2'F-ANA at 1 2 4 6 7 9 10 11 14: 50.5 a.u.
2'F-ANA at 3 7 8 9 10 12 13 14: 381 a.u.
2'F-ANA at 1 3 4 6 8 10 14: 56.3 a.u.

Block 3
Target: CREBZF, bZIP domain (human)
Technique: DHFR protein complementation
Sample: yeast
Notes: single substitutions, most at no-binding floor
Relative to: wild-type JUN-FOS pair
Direction: higher = stronger binding
Quantity: binding fitness
Starting sequence: JUN, bZIP domain (human); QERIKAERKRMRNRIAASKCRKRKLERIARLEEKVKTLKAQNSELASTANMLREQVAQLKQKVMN; partner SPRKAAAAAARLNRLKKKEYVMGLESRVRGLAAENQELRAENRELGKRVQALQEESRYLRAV
A40P: -1.53 natural log
A49D: -1.48 natural log
E33L: -1.51 natural log
L31Q: -1.48 natural log
L52G: -1.5 natural log
A49M: -1.53 natural log
K39N: -1.58 natural log
A49C: -1.41 natural log
R30S: -1.28 natural log
M51E: -1.5 natural log
A57Q: -1.47 natural log
K36V: -1.57 natural log
S47R: -1.41 natural log
L38I: -1.52 natural log
S43T: -1.46 natural log
T37V: -1.51 natural log
Q55S: -1.44 natural log

Block 4
Target: ABI1, truncated, D143A, DHFR fusion (Arabidopsis thaliana)
Technique: DHFR PCA, deep sequencing
Sample: yeast
Notes: methotrexate growth selection, single substitutions
With: (+)-ABA 0.032 µM
Relative to: wild-type fitted maximum
Direction: higher = stronger binding
Quantity: relative binding score
Starting sequence: PYL1, truncated, DHFR fusion (Arabidopsis thaliana); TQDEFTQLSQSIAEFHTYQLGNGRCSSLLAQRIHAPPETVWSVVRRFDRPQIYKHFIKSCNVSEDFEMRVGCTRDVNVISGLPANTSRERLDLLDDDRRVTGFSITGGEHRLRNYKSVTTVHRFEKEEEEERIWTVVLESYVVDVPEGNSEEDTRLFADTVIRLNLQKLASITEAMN; partner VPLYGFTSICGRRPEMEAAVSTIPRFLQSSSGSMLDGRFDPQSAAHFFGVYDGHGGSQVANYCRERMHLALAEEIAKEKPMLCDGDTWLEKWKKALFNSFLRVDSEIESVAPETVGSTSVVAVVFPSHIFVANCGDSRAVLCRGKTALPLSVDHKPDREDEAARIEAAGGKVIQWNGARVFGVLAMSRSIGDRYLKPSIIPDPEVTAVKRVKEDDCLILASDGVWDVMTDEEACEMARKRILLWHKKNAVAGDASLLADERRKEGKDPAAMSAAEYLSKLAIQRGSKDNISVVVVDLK
V118P: 1.33%
C25K: -6.26%
K116G: 1.27%
E129C: 30.5%
L93T: 7.22%
H122C: -1.77%
E147T: 9%
G71S: -0.0475%
S80M: 40.1%
Q31T: -4.26%
S42R: 12.8%
S150R: 6.09%
S26E: -7.19%
G81N: 20.1%
T86I: 39.4%
R69W: -3.81%
M68T: 13.9%
D96K: 6.06%
V137N: -2.79%

Repeated from above (block 2):
2'F-ANA at 4 5 9 10 14 15: 47 a.u.
2'F-ANA at 1 3 4 7 8 10 11 13 14: 65.8 a.u.
2'F-ANA at 1 2 3 7 8 11 13 14: 111 a.u.
2'F-ANA at 3 4 6 7 8 9 12 13: 706 a.u.
2'F-ANA at 4 5 8 9 10 15: 55.5 a.u.
2'F-ANA at 2 3 4 8 10: 255 a.u.
2'F-ANA at 1 3 4 6 8 10 14: 56.3 a.u.
2'F-ANA at 1 2 7 8 9 11: 151 a.u.
2'F-ANA at 1 6 7 9 13 15: 105 a.u.
2'F-ANA at 1 2 3 5 8 12 15: 134 a.u.
2'F-ANA at 1 2 3 4 6 7 8 9 10 14 15: 61.7 a.u.
